{"data": "Assay results gathered from unrelated publications", "CES1": "Liver carboxylesterase 1 (CES1, Homo sapiens, UniProt P23141)", "Oprm1": "Mu-type opioid receptor (Oprm1, Mus musculus, UniProt P42866)", "Cnr1": "Cannabinoid receptor 1 (Cnr1, Mus musculus, UniProt P47746)", "Gamma carbonic anhydrase": "Gamma carbonic anhydrase (Vibrio cholerae, UniProt Q9KVT1)", "Tmem97": "Sigma intracellular receptor 2 (Tmem97, Mus musculus, UniProt Q8VD00)", "note": "Protocols differ between the studies behind these lines. Values joined by “and” are separate records of one study, mostly repeats; a detail may differ. ± gives the spread as reported.", "UniProt P47746, sequence (whole entry, looked up)": "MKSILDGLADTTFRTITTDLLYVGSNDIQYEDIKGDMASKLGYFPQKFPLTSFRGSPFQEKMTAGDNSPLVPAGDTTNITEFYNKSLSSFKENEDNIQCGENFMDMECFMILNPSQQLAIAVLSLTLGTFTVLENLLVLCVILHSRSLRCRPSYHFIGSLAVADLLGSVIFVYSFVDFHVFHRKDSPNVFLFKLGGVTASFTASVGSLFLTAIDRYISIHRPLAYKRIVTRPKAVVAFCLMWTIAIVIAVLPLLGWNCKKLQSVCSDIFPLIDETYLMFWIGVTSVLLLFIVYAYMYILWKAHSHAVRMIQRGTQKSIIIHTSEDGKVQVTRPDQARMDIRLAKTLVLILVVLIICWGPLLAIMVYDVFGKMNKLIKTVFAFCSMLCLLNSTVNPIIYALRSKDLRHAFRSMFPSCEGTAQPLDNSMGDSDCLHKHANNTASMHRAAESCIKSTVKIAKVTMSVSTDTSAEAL", "UniProt P42866, sequence (whole entry, looked up)": "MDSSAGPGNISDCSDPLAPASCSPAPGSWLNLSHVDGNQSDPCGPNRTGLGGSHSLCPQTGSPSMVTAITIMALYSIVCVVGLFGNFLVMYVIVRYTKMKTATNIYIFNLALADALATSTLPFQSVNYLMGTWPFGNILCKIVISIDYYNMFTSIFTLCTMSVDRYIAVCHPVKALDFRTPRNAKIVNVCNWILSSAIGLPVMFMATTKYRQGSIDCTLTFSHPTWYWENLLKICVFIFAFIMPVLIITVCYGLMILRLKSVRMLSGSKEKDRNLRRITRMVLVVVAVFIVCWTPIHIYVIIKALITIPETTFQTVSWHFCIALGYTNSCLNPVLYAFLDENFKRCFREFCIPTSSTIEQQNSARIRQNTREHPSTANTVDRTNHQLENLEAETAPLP", "UniProt P08183, sequence (whole entry, looked up)": "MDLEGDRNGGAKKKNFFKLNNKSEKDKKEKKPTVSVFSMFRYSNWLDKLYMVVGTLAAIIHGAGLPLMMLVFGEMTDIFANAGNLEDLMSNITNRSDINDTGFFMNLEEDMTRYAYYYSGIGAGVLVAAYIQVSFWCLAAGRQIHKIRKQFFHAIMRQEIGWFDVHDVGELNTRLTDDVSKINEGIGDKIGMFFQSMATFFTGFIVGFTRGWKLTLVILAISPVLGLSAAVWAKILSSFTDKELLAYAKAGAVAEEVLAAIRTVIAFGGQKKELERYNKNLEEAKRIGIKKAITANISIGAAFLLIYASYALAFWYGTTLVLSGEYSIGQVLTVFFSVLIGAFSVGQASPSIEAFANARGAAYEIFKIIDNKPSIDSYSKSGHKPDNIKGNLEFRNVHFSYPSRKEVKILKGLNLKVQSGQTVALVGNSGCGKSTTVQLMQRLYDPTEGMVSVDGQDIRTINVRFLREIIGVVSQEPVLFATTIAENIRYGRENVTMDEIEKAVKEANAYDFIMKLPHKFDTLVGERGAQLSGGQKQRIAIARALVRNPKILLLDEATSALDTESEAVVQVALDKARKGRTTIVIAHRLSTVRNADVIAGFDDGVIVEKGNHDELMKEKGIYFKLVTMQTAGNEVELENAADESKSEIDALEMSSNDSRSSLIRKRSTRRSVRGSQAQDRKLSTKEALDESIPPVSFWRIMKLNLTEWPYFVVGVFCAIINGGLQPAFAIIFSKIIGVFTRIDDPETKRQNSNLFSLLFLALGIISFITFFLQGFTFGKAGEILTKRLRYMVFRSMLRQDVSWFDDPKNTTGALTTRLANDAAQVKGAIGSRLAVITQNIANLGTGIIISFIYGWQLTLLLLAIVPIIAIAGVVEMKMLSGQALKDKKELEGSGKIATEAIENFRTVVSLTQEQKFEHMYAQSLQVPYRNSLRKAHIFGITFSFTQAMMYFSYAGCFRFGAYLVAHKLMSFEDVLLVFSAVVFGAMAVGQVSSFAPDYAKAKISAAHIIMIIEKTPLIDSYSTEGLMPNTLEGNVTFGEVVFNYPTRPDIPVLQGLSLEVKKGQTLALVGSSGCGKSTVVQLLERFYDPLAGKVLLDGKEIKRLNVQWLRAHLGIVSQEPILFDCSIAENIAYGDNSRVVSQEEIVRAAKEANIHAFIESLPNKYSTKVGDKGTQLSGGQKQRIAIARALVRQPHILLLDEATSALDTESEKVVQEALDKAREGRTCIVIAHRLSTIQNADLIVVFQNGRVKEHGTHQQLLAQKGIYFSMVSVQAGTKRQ", "UniProt P23141, sequence (whole entry, looked up)": "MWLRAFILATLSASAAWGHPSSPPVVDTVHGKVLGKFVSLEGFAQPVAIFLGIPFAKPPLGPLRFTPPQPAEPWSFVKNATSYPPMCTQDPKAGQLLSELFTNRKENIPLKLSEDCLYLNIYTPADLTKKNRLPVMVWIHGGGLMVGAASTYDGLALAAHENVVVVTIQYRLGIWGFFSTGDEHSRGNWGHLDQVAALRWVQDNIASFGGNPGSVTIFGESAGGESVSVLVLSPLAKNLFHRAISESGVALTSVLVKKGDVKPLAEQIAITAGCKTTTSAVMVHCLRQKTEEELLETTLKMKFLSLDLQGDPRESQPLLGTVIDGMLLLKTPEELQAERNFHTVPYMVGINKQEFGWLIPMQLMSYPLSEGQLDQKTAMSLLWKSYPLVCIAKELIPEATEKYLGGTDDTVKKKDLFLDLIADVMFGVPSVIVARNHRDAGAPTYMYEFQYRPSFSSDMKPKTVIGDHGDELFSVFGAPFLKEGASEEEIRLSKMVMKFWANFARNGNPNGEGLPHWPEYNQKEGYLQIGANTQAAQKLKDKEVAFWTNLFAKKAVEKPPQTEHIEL", "UniProt Q8VD00, sequence (whole entry, looked up)": "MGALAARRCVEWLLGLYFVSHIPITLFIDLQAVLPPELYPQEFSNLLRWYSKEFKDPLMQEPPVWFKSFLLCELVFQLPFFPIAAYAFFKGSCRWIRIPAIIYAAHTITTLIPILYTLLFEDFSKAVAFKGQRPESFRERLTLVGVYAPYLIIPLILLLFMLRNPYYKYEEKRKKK", "UniProt O55242, sequence (whole entry, looked up)": "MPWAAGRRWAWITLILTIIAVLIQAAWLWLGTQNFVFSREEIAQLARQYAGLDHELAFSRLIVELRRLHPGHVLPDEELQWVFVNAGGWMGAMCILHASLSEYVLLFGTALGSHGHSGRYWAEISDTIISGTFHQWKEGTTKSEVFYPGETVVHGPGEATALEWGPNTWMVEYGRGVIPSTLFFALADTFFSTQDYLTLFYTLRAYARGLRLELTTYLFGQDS", "UniProt P9WKE3, sequence (whole entry, looked up)": "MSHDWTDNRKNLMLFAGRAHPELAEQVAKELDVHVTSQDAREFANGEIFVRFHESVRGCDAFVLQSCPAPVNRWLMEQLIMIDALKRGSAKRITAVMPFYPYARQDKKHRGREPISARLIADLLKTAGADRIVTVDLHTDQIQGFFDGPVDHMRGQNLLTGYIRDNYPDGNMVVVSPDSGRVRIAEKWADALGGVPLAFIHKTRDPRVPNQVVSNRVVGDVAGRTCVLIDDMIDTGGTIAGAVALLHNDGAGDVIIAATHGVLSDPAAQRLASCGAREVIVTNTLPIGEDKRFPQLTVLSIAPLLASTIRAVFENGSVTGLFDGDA", "UniProt Q01959, sequence (whole entry, looked up)": "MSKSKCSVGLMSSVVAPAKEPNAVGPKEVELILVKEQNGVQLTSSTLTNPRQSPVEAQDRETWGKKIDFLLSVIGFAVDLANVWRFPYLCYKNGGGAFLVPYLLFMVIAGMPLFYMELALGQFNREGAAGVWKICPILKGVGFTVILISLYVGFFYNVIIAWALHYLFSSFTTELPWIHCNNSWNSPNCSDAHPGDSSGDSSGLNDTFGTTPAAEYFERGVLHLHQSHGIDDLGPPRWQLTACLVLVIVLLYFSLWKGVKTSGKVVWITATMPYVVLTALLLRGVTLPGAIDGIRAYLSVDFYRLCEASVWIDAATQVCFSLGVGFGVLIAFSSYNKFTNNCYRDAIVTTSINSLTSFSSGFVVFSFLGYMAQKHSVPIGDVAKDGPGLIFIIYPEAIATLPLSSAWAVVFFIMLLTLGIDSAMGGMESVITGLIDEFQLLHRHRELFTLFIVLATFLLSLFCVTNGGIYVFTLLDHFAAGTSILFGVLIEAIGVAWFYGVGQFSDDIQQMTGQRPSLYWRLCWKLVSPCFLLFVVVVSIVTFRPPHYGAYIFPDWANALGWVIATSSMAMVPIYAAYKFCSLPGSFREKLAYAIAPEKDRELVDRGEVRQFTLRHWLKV", "UniProt P30926, sequence (whole entry, looked up)": "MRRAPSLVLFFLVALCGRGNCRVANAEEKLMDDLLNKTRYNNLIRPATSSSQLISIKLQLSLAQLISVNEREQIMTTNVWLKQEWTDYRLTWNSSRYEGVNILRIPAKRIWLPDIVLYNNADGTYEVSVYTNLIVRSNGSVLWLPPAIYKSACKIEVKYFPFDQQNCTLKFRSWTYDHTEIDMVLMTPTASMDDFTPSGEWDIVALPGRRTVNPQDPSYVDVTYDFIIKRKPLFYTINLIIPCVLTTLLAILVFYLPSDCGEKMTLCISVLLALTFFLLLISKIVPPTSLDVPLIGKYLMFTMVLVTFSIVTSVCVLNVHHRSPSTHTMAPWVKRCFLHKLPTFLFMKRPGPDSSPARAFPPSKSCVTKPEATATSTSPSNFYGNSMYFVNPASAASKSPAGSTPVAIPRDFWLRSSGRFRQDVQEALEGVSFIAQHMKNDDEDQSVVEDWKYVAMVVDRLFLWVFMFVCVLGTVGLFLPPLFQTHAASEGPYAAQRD", "UniProt Q9QZN9, sequence (whole entry, looked up)": "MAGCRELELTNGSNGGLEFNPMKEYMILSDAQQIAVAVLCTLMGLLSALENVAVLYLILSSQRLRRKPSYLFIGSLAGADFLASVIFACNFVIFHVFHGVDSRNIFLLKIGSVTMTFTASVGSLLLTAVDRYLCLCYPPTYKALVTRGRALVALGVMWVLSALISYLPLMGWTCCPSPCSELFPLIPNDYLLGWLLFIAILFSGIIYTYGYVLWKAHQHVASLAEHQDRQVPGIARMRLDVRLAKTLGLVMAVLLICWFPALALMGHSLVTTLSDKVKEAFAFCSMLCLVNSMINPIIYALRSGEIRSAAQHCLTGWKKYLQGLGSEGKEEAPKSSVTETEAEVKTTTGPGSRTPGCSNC"}
{"Molecule": "C=C[C@H]1CN2CCc3c([nH]c4cccc(OC)c34)[C@@H]2C[C@@H]1/C(=C\\OC)C(=O)OC", "target or system": "CES1", "assay": "enzyme activity, inhibitor", "endpoint": "Ki", "result": "26.1 µM"}
{"Molecule": "Cc1cc(C(=O)N[C@@H]2CC[C@@]3(O)[C@H]4Cc5cccc6c5[C@@]3(CCN4CC3CC3)[C@H]2O6)ccn1", "target or system": "Oprm1", "assay": "ligand displacement, radioligand", "conditions": "cell membranes", "endpoint": "Ki", "result": "0.039 µM"}
{"Molecule": "CCCCn1cc(C(=O)c2cccc3ccccc23)c2cccc(O)c21", "target or system": "Cnr1", "assay": "ligand displacement, radioligand", "conditions": "cell membranes", "endpoint": "Ki", "result": "0.122 µM"}
{"Molecule": "CN[C@@](C)(C[18F])C(=O)O", "system": "SCID mice (SK-OV-3 xenograft)", "conditions": "30 min after injection", "endpoint": "tumour uptake", "result": "6.4 ± 3.3 %ID/g"}
{"Molecule": "NS(=O)(=O)CCCCn1cc(CNC(=O)Nc2ccc(C(F)(F)F)cc2)nn1", "target or system": "Gamma carbonic anhydrase", "assay": "inhibitor", "endpoint": "Ki", "result": "16.8 µM"}
{"Molecule": "COc1ccc(C[C@@H](NC[C@H](O)c2cc(O)cc(O)c2)C(C)C)cc1", "target or system": "ADRB2 (Homo sapiens, UniProt P07550)", "assay": "binding", "endpoint": "Ki", "result": "no binding"}
{"Molecule": "C[C@H]1CN(C2CCCCCCC2)CC[C@@]1(C)c1cccc(O)c1", "target or system": "Nociceptin receptor (OPRL1, Homo sapiens, UniProt P41146)", "assay": "ligand displacement, radioligand", "endpoint": "Ki", "result": "> 10 µM"}
{"Molecule": "CCC(=O)C(CC(C)N(C)C)(c1ccccc1)c1ccccc1 (centres unmarked)", "target or system": "ABCB1 (Homo sapiens, UniProt P08183)", "conditions": "1 min", "endpoint": "Ki", "result": "18 µM and ~18 µM"}
{"Molecule": "Nc1ncnc2c1ncn2[C@@H]1O[C@H](COP(=O)(O)OP(=O)(O)O)[C@@H](O)[C@H]1O", "target or system": "prs (Mycobacterium tuberculosis, UniProt P9WKE3)", "assay": "enzyme activity, noncompetitive inhibitor", "conditions": "together with: ribose 5-phosphate varied, saturating ATP", "endpoint": "Ki", "result": "320 µM"}
{"Molecule": "CCCCn1cc(C(=O)c2cccc3ccccc23)c2ccccc21", "target or system": "Cnr1", "assay": "ligand displacement, radioligand", "conditions": "cell membranes", "endpoint": "Ki", "result": "0.0129 µM"}
{"Molecule": "NS(=O)(=O)CCCCn1cc(CNC(=O)Nc2ccc(F)cc2)nn1", "target or system": "Gamma carbonic anhydrase", "assay": "inhibitor", "endpoint": "Ki", "result": "20.6 µM"}
{"Molecule": "COc1cc(C(=O)N[C@@H]2CC[C@@]3(O)[C@H]4Cc5cccc6c5[C@@]3(CCN4CC3CC3)[C@H]2O6)ccn1", "target or system": "Oprm1", "assay": "ligand displacement, radioligand", "conditions": "cell membranes", "endpoint": "Ki", "result": "0.0456 µM"}
{"Molecule": "CNC(C)C(=O)c1ccc(F)cc1 (centres unmarked)", "target or system": "SLC18A2 (Homo sapiens, UniProt Q05940)", "assay": "ligand displacement, radioligand", "conditions": "cell membranes", "endpoint": "Ki", "result": "> 1000 µM"}
{"Molecule": "CCCCCCC(C)(C)c1ccc([C@@H]2C[C@H](O)CC[C@H]2CCCO)c(O)c1", "target or system": "Cnr2 (Rattus norvegicus, UniProt Q9QZN9)", "assay": "ligand displacement, radioligand", "conditions": "cell membranes", "endpoint": "Ki", "result": "0.0011 µM"}
{"Molecule": "CC[C@@H]1CN2CCc3c([nH]c4cccc(OC)c34)[C@H]2C[C@@H]1/C(=C\\OC)C(=O)OC", "target or system": "CES1", "assay": "reversible inhibitor", "conditions": "together with: oseltamivir substrate", "endpoint": "Ki", "result": "8.58 ± 3.09 µM"}
{"Molecule": "CN[C@@H](C)C/C=C/c1cncc(OC)c1", "target or system": "Neuronal acetylcholine receptor; alpha3/beta4 (Homo sapiens, UniProt P30926+P32297)", "assay": "ligand displacement, radioligand", "conditions": "cell membranes", "endpoint": "Ki", "result": "14 µM"}
{"Molecule": "CCN(CC)C(=O)[C@@H]1C=C2c3cccc4[nH]cc(c34)C[C@H]2N(C)C1", "target or system": "SLC6A3 (Homo sapiens, UniProt Q01959)", "assay": "ligand displacement, radioligand", "endpoint": "Ki", "result": "> 10 µM"}
{"Molecule": "C=CCN1CCC2(C)c3cc(O)ccc3CC1C2C (single isomer, unassigned; (+))", "target or system": "Sigmar1 (Mus musculus, UniProt O55242)", "endpoint": "Ki", "result": "0.0164 ± 0.0013 µM"}
{"Molecule": "COc1cccc(NC(=O)NCc2cn(CCCCS(N)(=O)=O)nn2)c1", "target or system": "Gamma carbonic anhydrase", "assay": "inhibitor", "endpoint": "Ki", "result": "22.2 µM"}
{"Molecule": "C=CCN1CCC2(C)c3cc(O)ccc3CC1C2C (single isomer, unassigned; (+))", "target or system": "Sigmar1 (Rattus norvegicus, UniProt Q9R0C9)", "assay": "radioligand binding", "system": "rat liver membranes", "conditions": "together with: [3H](+)-pentazocine 5 nM", "endpoint": "Ki", "result": "0.288 ± 0.024 µM"}
{"Molecule": "Cc1ccc(NC(=O)NCc2cn(CCCS(N)(=O)=O)nn2)cc1", "target or system": "Gamma carbonic anhydrase", "assay": "inhibitor", "endpoint": "Ki", "result": "10.9 µM"}
{"Molecule": "(−)-cocaine hydrochloride", "target or system": "Tmem97", "assay": "radioligand binding", "system": "mouse lung membranes", "conditions": "60 min, 25 °C, together with: [3H]DTG 3.0 nM, (+)-pentazocine 500 nM", "endpoint": "Ki", "result": "59.5 ± 7.21 µM"}
{"Molecule": "Cc1ccc(NC(=O)NCc2cn(CCCCS(N)(=O)=O)nn2)cc1", "target or system": "Gamma carbonic anhydrase", "assay": "inhibitor", "endpoint": "Ki", "result": "15.3 µM"}
{"Molecule": "C=CCN1CCC2(C)c3cc(O)ccc3CC1C2C (single isomer, unassigned; (+))", "target or system": "Tmem97", "assay": "ligand displacement, radioligand", "conditions": "cell membranes", "endpoint": "Ki", "result": "8.1 µM"}
{"Molecule": "NS(=O)(=O)CCCCn1cc(COc2ccccc2)nn1", "target or system": "Gamma carbonic anhydrase", "assay": "inhibitor", "endpoint": "Ki", "result": "43.5 µM"}
{"Molecule": "O=C(N[C@@H]1CC[C@@]2(O)[C@H]3Cc4cccc5c4[C@@]2(CCN3CC2CC2)[C@H]1O5)c1ccnc(Cl)c1", "target or system": "Oprm1", "assay": "ligand displacement, radioligand", "conditions": "cell membranes", "endpoint": "Ki", "result": "0.0188 µM"}
{"note": "For quick reference, copied from above:"}
{"Molecule": "CN[C@@H](C)C/C=C/c1cncc(OC)c1", "target or system": "Neuronal acetylcholine receptor; alpha3/beta4 (Homo sapiens, UniProt P30926+P32297)", "assay": "ligand displacement, radioligand", "conditions": "cell membranes", "endpoint": "Ki", "result": "14 µM"}
{"Molecule": "CCCCn1cc(C(=O)c2cccc3ccccc23)c2cccc(O)c21", "target or system": "Cnr1", "assay": "ligand displacement, radioligand", "conditions": "cell membranes", "endpoint": "Ki", "result": "0.122 µM"}
{"Molecule": "Nc1ncnc2c1ncn2[C@@H]1O[C@H](COP(=O)(O)OP(=O)(O)O)[C@@H](O)[C@H]1O", "target or system": "prs (Mycobacterium tuberculosis, UniProt P9WKE3)", "assay": "enzyme activity, noncompetitive inhibitor", "conditions": "together with: ribose 5-phosphate varied, saturating ATP", "endpoint": "Ki", "result": "320 µM"}
{"Molecule": "CN[C@@](C)(C[18F])C(=O)O", "system": "SCID mice (SK-OV-3 xenograft)", "conditions": "30 min after injection", "endpoint": "tumour uptake", "result": "6.4 ± 3.3 %ID/g"}
